Assay results gathered from unrelated publications.
Protocols differ between the studies behind these lines. Values joined by “and” are separate records of one study, mostly repeats; a detail may differ. ± gives the spread as reported.
Chain of UniProt P51617 (whole entry, looked up): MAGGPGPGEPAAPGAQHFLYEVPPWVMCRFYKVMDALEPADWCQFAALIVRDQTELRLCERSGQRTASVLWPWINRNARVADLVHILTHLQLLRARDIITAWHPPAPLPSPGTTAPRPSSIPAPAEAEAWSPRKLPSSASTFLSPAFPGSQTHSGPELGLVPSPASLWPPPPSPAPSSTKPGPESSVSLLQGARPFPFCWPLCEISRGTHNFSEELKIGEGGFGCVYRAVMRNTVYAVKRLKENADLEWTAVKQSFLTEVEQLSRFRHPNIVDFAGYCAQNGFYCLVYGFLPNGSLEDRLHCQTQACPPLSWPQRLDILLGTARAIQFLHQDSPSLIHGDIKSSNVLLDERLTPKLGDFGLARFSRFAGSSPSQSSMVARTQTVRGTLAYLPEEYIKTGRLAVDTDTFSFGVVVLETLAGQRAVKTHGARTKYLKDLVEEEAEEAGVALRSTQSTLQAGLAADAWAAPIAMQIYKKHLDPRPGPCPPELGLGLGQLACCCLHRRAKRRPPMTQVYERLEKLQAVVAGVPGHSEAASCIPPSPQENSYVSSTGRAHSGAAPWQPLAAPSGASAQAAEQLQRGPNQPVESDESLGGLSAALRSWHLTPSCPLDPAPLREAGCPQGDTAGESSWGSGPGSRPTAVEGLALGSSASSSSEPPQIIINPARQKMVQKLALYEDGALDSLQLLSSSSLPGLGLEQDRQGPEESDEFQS

The tissue concentration of CSc1cc(C)nc(SC)c1NC(=O)CN1CCN(CCSc2nc3ccccc3[nH]2)CC1.Cl is reported as 2.6 ng/g and 1.5 ng/g (mouse Crl:CD1 (ICR), female, cerebrum; intranasal, 10 µL of HA solution once daily for 7 days, 120 min after last dose).
CN(C(=O)n1cnc(-c2cccnc2)c1)[C@H]1CC[C@H](O)CC1 gave a tissue concentration of 16.5 ± 1 ng/g (rat, hippocampus; oral, 10 mg/kg single dose, 1 h).
Under “patients with QTcF increase”, Cc1cc(Nc2ccc(S(F)(F)(F)(F)F)cc2)n2nc(C(C)(F)F)nc2n1 is recorded as 0% (Plasmodium falciparum; 12-lead ECG; malaria patients; oral, 250 mg, increase above 60 ms).
For Cc1cc(C(=O)NC(C)(C)COc2cccc3c2C(N)=NS(=O)(=O)N3)cc(C)n1, the cytotoxicity was 2% (human peripheral blood lymphocytes; CBPI, concurrent micronucleus test; 250 µg/mL, 24 h; baseline: vehicle control).
Cc1nc2ccc(OCc3ccc(C(F)(F)F)cc3)cc2[nH]1 gave a tissue concentration of 5830 ± 627 ng/g (Balb/c mouse, male, kidney; oral, 10 mg/kg, 4 h).
NC/C(=C\F)COc1cccc(Cn2c(=S)[nH]c(=O)c3[nH]cnc32)c1 gave a tissue concentration of 73 ng/mL (C57BL/6J mice, heart; oral, 15 mg/kg single, 2 h).
With CCc1c2c(nc3ccc(OC(=O)N4CCC(N5CCCCC5)CC4)cc13)-c1cc3c(c(=O)n1C2)COC(=O)[C@]3(O)CC the tissue concentration was 17900 ± 13200 ng/g (mouse Mrp2(−/−), colon; intraperitoneal, 50 mg/kg, 24 h).
For COc1ccc2c(=O)n(C)c(-c3ccccc3)nc2c1, tissue concentration read “not detected” (Sprague-Dawley rat, brain; oral, 30 mg/kg, 4 h).
CN(C(=O)n1cnc(-c2ccc[n+]([O-])c2)c1)[C@H]1CC[C@H](O)CC1 gave a tissue concentration of 8.7 ± 0.5 ng/g (rat, cerebellum; oral, 10 mg/kg single dose, 1 h).
Under “revertant colonies per plate”, CC[C@H](CO)N(CCN(N=O)[C@H](CC)CO)N=O is recorded as 141 ± 7 (Salmonella typhimurium; mutagenicity, Ames plate incorporation; TA100; 150 µg/plate, without S9, methanol).
For O=c1cc(-c2ccc(O)cc2)oc2c([C@@H]3OC[C@H](O)[C@H](O)[C@H]3O)c(O)c([C@@H]3O[C@H](CO)[C@@H](O)[C@H](O)[C@H]3O)c(O)c12, the tissue concentration was 0.25 ng/g (UHPLC-MS/MS; C57BL/6J mouse, brain; oral, dose not given).
For CC[C@@H]1[C@H](F)C(=O)N[C@@H]1COc1nccc2cc(C(N)=O)c(OC)cc12, the inhibition was 2.2% (IRAK1 (Homo sapiens, UniProt P51617); ATP-site probe binding, ActivX profiling; THP-1 cell lysate; 0.2 mM, Lys2 site).
Under tissue concentration, OCc1nc2ccc(NCc3ccc(C(F)(F)F)cc3)cc2[nH]1 is recorded as “not detected” (Balb/c mice, male, kidney; intravenous, 1 mg/kg, 48 h).

Repeated from above:
CN(C(=O)n1cnc(-c2cccnc2)c1)[C@H]1CC[C@H](O)CC1 gave a tissue concentration of 16.5 ± 1 ng/g (rat, hippocampus; oral, 10 mg/kg single dose, 1 h).
CN(C(=O)n1cnc(-c2ccc[n+]([O-])c2)c1)[C@H]1CC[C@H](O)CC1 gave a tissue concentration of 8.7 ± 0.5 ng/g (rat, cerebellum; oral, 10 mg/kg single dose, 1 h).
